Experimental data from different studies.
A part holds a random share of what one study measured.
Chain of UniProt Q9Y6E0 (whole entry, looked up): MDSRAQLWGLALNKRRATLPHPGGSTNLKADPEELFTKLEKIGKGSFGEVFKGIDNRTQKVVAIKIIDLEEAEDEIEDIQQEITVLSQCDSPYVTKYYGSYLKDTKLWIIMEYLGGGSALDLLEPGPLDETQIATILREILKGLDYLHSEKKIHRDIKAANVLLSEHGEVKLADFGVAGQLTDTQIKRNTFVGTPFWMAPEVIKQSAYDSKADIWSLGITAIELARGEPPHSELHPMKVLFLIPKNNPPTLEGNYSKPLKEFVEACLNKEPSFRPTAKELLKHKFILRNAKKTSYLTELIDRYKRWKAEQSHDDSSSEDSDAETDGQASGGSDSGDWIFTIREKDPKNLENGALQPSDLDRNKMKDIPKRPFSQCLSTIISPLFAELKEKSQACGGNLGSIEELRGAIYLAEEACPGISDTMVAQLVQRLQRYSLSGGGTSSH
Chain of UniProt Q13237 (whole entry, looked up): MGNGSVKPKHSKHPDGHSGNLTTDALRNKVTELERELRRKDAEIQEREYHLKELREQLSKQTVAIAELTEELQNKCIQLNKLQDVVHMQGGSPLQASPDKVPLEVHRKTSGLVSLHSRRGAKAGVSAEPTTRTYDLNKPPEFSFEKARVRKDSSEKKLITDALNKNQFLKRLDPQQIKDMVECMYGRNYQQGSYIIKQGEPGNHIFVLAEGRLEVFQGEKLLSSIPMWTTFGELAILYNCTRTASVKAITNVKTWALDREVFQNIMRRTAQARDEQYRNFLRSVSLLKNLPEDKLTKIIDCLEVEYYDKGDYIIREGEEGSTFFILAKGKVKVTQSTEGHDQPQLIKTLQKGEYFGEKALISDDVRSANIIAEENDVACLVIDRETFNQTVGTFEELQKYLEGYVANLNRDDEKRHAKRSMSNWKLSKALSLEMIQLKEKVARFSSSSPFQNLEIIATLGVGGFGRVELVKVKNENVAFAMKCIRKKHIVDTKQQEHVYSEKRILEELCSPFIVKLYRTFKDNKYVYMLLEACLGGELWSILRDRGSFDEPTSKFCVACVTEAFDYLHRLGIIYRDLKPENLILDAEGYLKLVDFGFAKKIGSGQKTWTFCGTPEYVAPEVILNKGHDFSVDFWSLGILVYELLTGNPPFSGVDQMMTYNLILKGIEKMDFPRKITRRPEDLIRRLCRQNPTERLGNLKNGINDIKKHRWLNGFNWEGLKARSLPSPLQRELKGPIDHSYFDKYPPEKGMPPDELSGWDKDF
Chain of UniProt P57059 (whole entry, looked up): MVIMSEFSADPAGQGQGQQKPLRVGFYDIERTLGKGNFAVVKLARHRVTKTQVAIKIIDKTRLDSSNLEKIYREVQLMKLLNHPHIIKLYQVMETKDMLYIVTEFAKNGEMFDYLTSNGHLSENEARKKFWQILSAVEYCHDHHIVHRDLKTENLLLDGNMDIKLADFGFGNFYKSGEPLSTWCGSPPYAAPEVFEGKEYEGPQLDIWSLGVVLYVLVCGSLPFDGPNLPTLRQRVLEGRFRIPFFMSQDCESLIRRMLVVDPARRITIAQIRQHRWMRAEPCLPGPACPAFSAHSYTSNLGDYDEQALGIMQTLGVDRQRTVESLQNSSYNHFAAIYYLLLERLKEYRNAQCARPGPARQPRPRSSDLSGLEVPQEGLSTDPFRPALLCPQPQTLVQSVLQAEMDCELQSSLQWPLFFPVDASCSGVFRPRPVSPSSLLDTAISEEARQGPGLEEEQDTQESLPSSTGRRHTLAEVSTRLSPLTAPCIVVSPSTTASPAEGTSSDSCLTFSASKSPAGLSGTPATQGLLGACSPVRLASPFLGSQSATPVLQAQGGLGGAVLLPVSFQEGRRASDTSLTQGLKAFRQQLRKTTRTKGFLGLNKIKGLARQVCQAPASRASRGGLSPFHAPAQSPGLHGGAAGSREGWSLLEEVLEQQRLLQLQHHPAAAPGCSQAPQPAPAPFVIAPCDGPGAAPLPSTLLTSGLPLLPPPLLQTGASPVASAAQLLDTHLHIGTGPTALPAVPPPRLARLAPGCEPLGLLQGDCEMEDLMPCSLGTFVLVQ
Chain of UniProt P53355 (whole entry, looked up): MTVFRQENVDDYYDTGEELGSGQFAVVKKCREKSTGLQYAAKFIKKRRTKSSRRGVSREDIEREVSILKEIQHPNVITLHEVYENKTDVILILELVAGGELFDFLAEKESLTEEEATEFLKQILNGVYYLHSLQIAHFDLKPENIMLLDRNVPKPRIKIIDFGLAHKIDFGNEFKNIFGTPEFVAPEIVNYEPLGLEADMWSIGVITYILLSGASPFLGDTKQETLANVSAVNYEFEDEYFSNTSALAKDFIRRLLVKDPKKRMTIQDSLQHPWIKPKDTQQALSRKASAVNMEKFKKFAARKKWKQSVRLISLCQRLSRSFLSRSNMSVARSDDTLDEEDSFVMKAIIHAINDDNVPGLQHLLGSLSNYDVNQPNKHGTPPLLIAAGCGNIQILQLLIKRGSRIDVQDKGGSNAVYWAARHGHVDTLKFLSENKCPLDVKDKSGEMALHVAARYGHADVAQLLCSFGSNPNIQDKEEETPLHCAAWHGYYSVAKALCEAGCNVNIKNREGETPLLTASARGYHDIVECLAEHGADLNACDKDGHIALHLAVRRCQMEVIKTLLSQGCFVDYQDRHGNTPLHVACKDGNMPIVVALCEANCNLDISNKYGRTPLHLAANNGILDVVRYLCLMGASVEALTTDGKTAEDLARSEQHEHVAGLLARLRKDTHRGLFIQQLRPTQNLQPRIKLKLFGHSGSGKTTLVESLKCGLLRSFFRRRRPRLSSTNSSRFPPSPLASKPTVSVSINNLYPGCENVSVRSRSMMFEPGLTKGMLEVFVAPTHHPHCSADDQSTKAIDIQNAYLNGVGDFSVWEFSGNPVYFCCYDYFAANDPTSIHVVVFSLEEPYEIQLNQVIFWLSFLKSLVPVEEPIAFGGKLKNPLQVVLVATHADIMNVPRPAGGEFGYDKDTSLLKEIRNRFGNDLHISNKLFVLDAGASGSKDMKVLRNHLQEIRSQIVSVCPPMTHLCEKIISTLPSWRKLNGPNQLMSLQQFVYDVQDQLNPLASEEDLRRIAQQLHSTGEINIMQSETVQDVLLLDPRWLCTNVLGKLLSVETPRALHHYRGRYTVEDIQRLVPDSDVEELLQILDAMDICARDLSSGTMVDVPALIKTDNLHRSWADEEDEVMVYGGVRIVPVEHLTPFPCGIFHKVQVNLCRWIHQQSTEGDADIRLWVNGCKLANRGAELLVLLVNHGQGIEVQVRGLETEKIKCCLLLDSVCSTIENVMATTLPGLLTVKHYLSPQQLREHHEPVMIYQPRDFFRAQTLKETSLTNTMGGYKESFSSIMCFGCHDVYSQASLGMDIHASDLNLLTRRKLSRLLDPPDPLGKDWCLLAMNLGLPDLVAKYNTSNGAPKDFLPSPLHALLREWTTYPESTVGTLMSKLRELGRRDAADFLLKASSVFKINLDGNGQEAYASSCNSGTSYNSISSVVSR

Block 1 — observed: enzyme activity; action: inhibitor; concentration: 0.5 µM; baseline: control
Target: ALK tyrosine kinase receptor (ALK, Homo sapiens, UniProt Q9UM73)
Chain of UniProt Q9UM73 (whole entry, unmodified, looked up): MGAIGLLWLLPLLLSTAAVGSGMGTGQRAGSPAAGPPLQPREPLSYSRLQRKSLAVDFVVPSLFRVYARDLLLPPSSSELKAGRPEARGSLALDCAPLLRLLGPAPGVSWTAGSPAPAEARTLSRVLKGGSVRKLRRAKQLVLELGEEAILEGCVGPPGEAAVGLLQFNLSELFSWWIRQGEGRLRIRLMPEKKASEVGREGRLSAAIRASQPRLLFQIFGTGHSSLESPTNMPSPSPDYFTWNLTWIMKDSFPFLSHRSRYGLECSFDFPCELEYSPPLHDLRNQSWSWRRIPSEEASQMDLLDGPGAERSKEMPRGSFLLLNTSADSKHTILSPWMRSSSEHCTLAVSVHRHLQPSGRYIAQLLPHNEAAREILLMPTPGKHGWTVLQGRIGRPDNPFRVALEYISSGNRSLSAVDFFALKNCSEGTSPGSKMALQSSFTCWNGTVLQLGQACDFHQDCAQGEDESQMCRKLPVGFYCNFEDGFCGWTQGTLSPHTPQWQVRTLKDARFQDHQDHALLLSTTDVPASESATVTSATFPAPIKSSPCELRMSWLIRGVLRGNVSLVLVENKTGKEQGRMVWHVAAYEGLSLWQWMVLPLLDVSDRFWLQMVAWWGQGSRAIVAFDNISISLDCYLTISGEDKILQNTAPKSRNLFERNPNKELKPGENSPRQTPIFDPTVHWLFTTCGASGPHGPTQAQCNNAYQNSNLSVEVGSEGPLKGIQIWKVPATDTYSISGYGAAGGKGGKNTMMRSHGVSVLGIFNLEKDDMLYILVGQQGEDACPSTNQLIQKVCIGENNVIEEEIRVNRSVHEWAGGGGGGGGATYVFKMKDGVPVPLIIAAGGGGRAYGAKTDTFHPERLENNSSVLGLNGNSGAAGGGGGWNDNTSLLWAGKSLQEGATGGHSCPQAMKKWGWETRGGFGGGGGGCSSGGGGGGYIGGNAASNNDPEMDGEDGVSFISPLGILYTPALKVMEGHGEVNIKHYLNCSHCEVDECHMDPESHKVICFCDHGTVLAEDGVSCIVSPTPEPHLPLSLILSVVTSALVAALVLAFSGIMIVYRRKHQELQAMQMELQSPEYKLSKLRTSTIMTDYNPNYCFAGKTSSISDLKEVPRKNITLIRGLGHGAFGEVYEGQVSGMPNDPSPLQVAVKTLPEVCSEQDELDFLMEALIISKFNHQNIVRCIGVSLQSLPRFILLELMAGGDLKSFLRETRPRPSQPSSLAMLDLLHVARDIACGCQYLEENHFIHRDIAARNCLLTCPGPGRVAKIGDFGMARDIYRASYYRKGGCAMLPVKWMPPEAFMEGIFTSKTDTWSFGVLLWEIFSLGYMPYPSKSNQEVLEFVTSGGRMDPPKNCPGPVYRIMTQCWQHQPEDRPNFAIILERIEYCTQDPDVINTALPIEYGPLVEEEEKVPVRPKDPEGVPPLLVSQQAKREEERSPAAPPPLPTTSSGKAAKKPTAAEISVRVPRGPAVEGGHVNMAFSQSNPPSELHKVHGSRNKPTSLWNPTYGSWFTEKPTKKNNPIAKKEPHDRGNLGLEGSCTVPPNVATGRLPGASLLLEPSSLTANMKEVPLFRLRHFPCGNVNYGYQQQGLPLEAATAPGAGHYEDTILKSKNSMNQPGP
| SMILES | remaining activity [%] |
| --- | --- |
| C[C@@H](N)[C@H]1CC[C@H](C(=O)Nc2ccncc2)CC1 | 94.8 |
| Clc1ccc(Nc2nnc(Cc3ccncc3)c3ccccc23)cc1 | 102 |
| O=c1c(-c2ccc(F)cc2)c(-c2ccncc2)[nH]n1-c1ccc(Cl)cc1 | 83.8 |
| O=C1NC(=O)/C(=C/c2ccc3c(c2)OC(F)(F)O3)S1 | 83.4 |
| c1cc(-c2cnn3cc(-c4ccc(OCCN5CCCCC5)cc4)cnc23)ccn1 | 84.5 |
| CNc1cc2c(Nc3cccc(Br)c3)ncnc2cn1 | 82 |
| CCCCc1c(-c2ccc(O)cc2)[nH]c2nccnc12 | 85 |
| CC(C)n1cnc2c(Nc3cccc(Cl)c3)nc(NCCO)nc21 | 91.8 |
| CC(C)(C)c1nc2c3cc[nH]c(=O)c3c3cc(F)ccc3c2[nH]1 | 20 |
| FC(F)(F)c1ccc(/C=C/c2nc(COc3ccc(CCCCn4ccnn4)cc3)co2)cc1 | 108 |
| CCN(CC)CCCCN1c2ccccc2Oc2ccc(Cl)cc21 | 106 |
| CC(C)N(CCC(=O)c1ccc2ccccc2c1)Cc1ccccc1 | 88.9 |
| N#C/C(=C(/N)SC1C=CC=CC1)c1cccc(C(O)c2ccncc2)c1 (centres unmarked) | 96.3 |
| NC(=O)c1cccc(-c2cc(Nc3ccc(OC(F)(F)F)cc3)ncn2)c1 | 103 |
| NC(=O)c1ccc(-c2nc(-c3ccc4c(c3)OCCO4)c(-c3ccccn3)[nH]2)cc1 | 100 |
| N#CC(c1ccnc(NCCc2cccnc2)n1)c1nc2ccccc2s1 (centres unmarked) | 85.2 |
| Nc1nc(Nc2ccc(S(N)(=O)=O)cc2)nn1C(=S)Nc1c(F)cccc1F | 16.7 |
| O=C(O)/C=C/c1cc(Br)c(Br)c(Br)c1Br | 98.6 |
| O=C(c1ccccc1)c1ccc(N2CCOCC2)cc1O | 102 |
| O=Nc1c(-c2c(O)[nH]c3ccccc23)[nH]c2ccccc12 | 76.5 |
| O=C1c2ccccc2-c2nc3nnnn3nc21 | 83.5 |

Block 2 — cell line: Huh-7; concentration: 10 µM; time: 24 h
| Compound | viability |
| --- | --- |
| CCCCCCCCCCCCCCCC(=O)O[C@@H]1[C@@H](O)[C@@H](O)[C@@H]([C@H](NC(=O)[C@@H]2C[C@@H](CCC)CN2C)[C@H](C)Cl)O[C@@H]1SC | 100% |
| CC(C(=O)O)c1ccc(C(=O)c2cccs2)cc1 (centres unmarked) | 97.2% |
| C=CCCCCCCCCC(=O)O | 98.5% |
| O=C1CN(/N=C/c2ccc(-c3ccc([N+](=O)[O-])cc3)o2)C(O)=N1 | 96.5% |
| CC1CCc2cc(F)cc3c(=O)c(C(=O)O)cn1c23 (centres unmarked) | 102% |
| CC(=O)N(O)CCCCCNC(=O)CCC(=O)N(O)CCCCCNC(=O)CCC(=O)N(O)CCCCCN | 89.3% |
| CN(C)CCc1c[nH]c2ccc(C[C@H]3COC(=O)N3)cc12 | 101% |
| CO[C@@]1(NC(=O)CSCC#N)C(=O)N2C(C(=O)O)=C(CSc3nnnn3C)CS[C@@H]21 | 102% |
| C[C@]12CCC(=O)C=C1CC[C@@H]1[C@@H]2[C@@H](O)C[C@@]2(C)[C@H]1CC[C@]2(O)C(=O)COC(=O)CCC(=O)O | 99.1% |
| CN(C)c1ccc(C(=C2C=CC(=[N+](C)C)C=C2)c2ccc(N(C)C)cc2)cc1 | 51.9% |
| CN1C(C(=O)Nc2ccccn2)=C(O)c2ccccc2S1(=O)=O | 102% |
| CNCCCC1c2ccccc2C=Cc2ccccc21 | 82.8% |

Block 3 — concentration: 1 µM
Compound: Cc1nc(C2CCN(C(=O)c3ccc(OC(F)(F)F)cc3N)CC2)c2ncc(N3CCN(C)CC3)cc2n1
| target | assay | remaining binding [%] |
| --- | --- | --- |
| Death-associated protein kinase 1 (DAPK1, Homo sapiens, UniProt P53355) | cell-free assay, competition with immobilised ligand | 95 |
| cAMP-dependent protein kinase catalytic subunit PRKX (PRKX, Homo sapiens, UniProt P51817) | cell-free assay, competition with immobilised ligand | 100 |
| Epidermal growth factor receptor (EGFR, Homo sapiens, UniProt P00533, del747-752/P753S) | cell-free assay, competition with immobilised ligand | 100 |
| Mitogen-activated protein kinase 4 (MAPK4, Homo sapiens, UniProt P31152) | cell-free assay, competition with immobilised ligand | 91 |
| ALK tyrosine kinase receptor (ALK, Homo sapiens, UniProt Q9UM73, C1156Y) | cell-free assay, competition with immobilised ligand | 100 |
| cGMP-dependent protein kinase 2 (PRKG2, Homo sapiens, UniProt Q13237) | cell-free assay, competition with immobilised ligand | 74 |
| Vascular endothelial growth factor receptor 2 (KDR, Homo sapiens, UniProt P35968) | cell-free assay, competition with immobilised ligand | 93 |
| Serine/threonine-protein kinase SIK1 (SIK1, Homo sapiens, UniProt P57059) | competition binding | 100 |
| Receptor-type tyrosine-protein kinase FLT3 (FLT3, Homo sapiens, UniProt P36888, K663Q) | cell-free assay, competition with immobilised ligand | 100 |
| Serine/threonine-protein kinase 24 (STK24, Homo sapiens, UniProt Q9Y6E0) | cell-free assay, competition with immobilised ligand | 97 |
| Cyclin-dependent kinase 4, with cyclin D3 (CDK4, Homo sapiens, UniProt P11802) | cell-free assay, competition with immobilised ligand | 100 |
| Receptor-type tyrosine-protein kinase FLT3 (FLT3, Homo sapiens, UniProt P36888, D835Y) | cell-free assay, competition with immobilised ligand | 97 |
| Proto-oncogene tyrosine-protein kinase receptor Ret (RET, Homo sapiens, UniProt P07949, V804M) | cell-free assay, competition with immobilised ligand | 100 |

Block 4 — action: binding; method: isothermal titration calorimetry; temperature: 15 °C
Target: Bromodomain-containing protein 4, BD1 (BRD4, Homo sapiens, UniProt O60885)
| SMILES | TΔS [kcal/mol] |
| --- | --- |
| CC[C@@H]1C(=O)N(C)c2cnc(Nc3ccc(C(=O)N[C@H]4CC[C@H](N5CCN(CC6CC6)CC5)CC4)cc3OC)nc2N1C(C)C | 0.85 |
| Cc1cnc(Nc2ccc(N3CCN(C)CC3)cc2)nc1Nc1cccc(S(=O)(=O)NC(C)(C)C)c1 | 1.95 |
| Cc1cnc(Nc2ccc(OCCN3CCCC3)cc2)nc1Nc1cccc(S(=O)(=O)NC(C)(C)C)c1 | 3.65 |
| CC(C)CCN1c2nc(Nc3cc(F)c(O)c(F)c3)ncc2N(C)C(=O)C1C (centres unmarked) | -3.8 |
